# Measurements of several laboratories.
# Each numbered part is a random draw from the data of one study; scales do not carry over between parts. Substitutions count along the parent as printed.
# Sequence of UniProt P51813 (whole entry, looked up): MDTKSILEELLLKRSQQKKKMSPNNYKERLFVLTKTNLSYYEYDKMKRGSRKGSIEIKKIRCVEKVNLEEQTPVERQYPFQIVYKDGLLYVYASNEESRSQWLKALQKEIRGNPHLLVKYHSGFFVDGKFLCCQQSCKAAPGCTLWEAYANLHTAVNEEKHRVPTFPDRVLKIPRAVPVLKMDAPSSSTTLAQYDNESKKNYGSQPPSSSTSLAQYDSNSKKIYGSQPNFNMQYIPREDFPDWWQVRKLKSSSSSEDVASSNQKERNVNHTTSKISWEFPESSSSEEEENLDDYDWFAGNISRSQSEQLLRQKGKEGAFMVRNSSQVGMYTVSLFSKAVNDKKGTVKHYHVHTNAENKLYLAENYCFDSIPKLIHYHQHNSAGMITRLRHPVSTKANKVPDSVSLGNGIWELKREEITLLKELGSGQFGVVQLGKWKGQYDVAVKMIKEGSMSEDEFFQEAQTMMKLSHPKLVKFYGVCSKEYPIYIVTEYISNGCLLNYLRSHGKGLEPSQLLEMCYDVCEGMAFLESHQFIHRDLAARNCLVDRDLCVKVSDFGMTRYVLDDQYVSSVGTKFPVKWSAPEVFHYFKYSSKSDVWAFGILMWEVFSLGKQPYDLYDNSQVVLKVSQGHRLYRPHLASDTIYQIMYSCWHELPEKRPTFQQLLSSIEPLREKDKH

# Series 1
# Target: CCND2, cyclin fold, Cln2 fusion (human)
# Method: yeast growth competition, sequencing
# Matrix: yeast
# Setting: weak parent motif
# Baseline: not given
# Reading: higher = stronger binding
# Parent: viral docking peptide; KGVKRKLFAEDSS; partner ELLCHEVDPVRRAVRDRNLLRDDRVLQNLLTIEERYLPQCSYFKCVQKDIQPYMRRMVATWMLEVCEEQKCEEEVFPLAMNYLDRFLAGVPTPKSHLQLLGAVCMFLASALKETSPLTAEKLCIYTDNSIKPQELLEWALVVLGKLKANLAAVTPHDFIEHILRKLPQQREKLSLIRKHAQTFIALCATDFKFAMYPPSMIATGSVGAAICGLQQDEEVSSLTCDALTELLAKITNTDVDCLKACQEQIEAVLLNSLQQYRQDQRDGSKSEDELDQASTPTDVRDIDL
Variant,normalised enrichment score
K6H,0.143
S12V,-0.000293
S12G,-0.41
D11W,-0.413
L7A,0.0112
G2D,0.185
V3G,0.107
K6F,-0.156

# Series 2
# Target: inorganic phosphate, free oxyanion
# Method: microfluidic competitive inhibition
# Matrix: in vitro, cell-free expressed
# Concentration: not given
# Setting: derived from inhibition constants, unchanged parent 615000 nM
# Reading: lower = stronger binding
# Parent: PafA, mature enzyme, eGFP fusion (Elizabethkingia meningoseptica, UniProt Q9KJX5); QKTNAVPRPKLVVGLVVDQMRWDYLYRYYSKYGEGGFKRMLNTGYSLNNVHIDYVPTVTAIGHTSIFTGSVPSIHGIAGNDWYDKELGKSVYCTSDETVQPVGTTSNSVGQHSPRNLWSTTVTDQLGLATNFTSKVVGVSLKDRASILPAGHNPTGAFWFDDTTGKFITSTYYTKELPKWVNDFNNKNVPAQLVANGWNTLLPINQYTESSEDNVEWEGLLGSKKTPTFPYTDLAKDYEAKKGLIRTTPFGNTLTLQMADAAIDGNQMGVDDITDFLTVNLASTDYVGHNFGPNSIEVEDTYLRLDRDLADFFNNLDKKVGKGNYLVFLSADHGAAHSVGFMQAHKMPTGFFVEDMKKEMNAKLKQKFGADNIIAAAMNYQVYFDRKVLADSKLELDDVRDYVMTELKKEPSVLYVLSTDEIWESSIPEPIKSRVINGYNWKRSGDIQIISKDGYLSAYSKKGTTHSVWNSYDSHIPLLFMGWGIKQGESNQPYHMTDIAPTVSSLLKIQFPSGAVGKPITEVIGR
Variant,phosphate dissociation constant [µM]
C93G,724
L47V,601
Y29V,557
W180V,444
N107V,626
N4V,654
F384V,715
L221V,585

# Other studies, line by line
Substance,target or system,assay,system,conditions,scale,quantity,value
TAPFYPPAYDIQVFK,,"Ni-NTA bead binding, phage display NGS","peptide, phage-displayed 15-mer library","concentration not given, together with: Ni-NTA beads 20 µL",baseline: input library,enrichment fold change,0.355
COC[C@H]1OC(=O)c2coc3c2[C@@]1(C)C1=C(C3=O)[C@@H]2CCC(=O)[C@@]2(C)C[C@H]1OC(C)=O,"Cytoplasmic tyrosine-protein kinase BMX (BMX, Homo sapiens, UniProt P51813)","enzyme activity, inhibitor",,0.5 µM,baseline: control,remaining activity,92.3%

# Excerpt of the above (series 1):
Variant,normalised enrichment score
D11W,-0.413
L7A,0.0112
